Experimental data gathered from unrelated publications.
A part holds a random share of what one study measured.

Study 1
Target: RNA binding protein fox-1 homolog 2, RRM domain, GST-SBP tag (RBFOX2, Homo sapiens, UniProt O43251-10, residues 100-194)
Method: RNA Bind-n-Seq
Form: RNA
Medium: in vitro
Concentration: 365 nM
Setting: natural RNA segment, single round, ends assumed
Relative to: no-protein control
Reading: higher = stronger binding
All sequences stand within: GGGAGUUCUACAGUCCGACGAUC … UGGAAUUCUCGGGUGCCAA
Construct (chain): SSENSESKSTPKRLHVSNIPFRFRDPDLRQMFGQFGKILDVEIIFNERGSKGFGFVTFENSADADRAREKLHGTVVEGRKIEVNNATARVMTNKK
Oligonucleotide	RBNS enrichment (R)
AGUAUUCAGAGUCUCUGAUACACAGUAAUUGUGACAAUAGGGCUAAAUGUUUAAAGAAAUCAAAAGAAUCUAUUAGAUUUUAGAAAAACAUUUAAACUUUUUAAAAUACU	0.395
GCCCAGCGCCACGGGCCAGGAAGUACAAGUGUGGCCUGCCCCAGCCGUGUCCUGAGGAGCACCUGGCCUUCCGCGUGGUCAGCGGGGCCGCCAACGUCAUUGGGCCCAAG	0.975
UUUUCAAGGAUAUUAGUUCAAAUUGAAAUGGUUUCACGCCACACGGAAAUCUUUAAGUUAUUUGUUGAGGUACCAUAUAUUUAGGGUGCUAGGGGCAAGUAAUGUUAAUA	0.352
UGGUCUGGAACAUUAGUUUUUUUAAGGCAACUGUGGCCAAUAUUUAUAUCAUGACAUACAAAUGGAUUUACGUAUUUGACUGAAAUGAAAGUUCCACUAAACGGUAUUUG	0.482
GGUUGGCUGGUGGGUCACCCAGCAGAGGCUUCUCCCCAUAGCACGAGGAUGUGUUGCCUGGGCACGGUGACUGCGGUUAUUCCUGGAGGUCGGCAGACAUGCCAACCUUG	0.994
ACCUUUUUGAAGUUUGAGCCUUGAGCACCUUCAACAAAAUUGAGCACUCUGAUUAGGAUAUCCACUUUGCAAAUAAAACCAAAUGUUUUGUCAACAUGAUGGUAAAAAGG	0.299
CGCCCCUCCCCGCCCACUGUGCCUGUUGGCCUAUCAUAGAUCUCUAUGUUCUUGACUUUGUCUCUCCUUUCCGAGUCAAUGGUGGGUUACACUGAUCUUGUUCCACUGAU	0.5
AAUGCCUCAGGAGUCCGGCAUAUACAACCAAAUUAUCAUGCUCAGGAUCUUCAGAAUUCUAAAGGCACAUGUUAGAAUGCAGAGUCCUGAUGACCUGUCAAUAAACUUUU	1.08

Study 2
Target: Histone acetyltransferase KAT6A, winged helix 2, GST fusion (KAT6A, Homo sapiens, UniProt Q92794, residues 85-181)
Method: protein binding microarray
Form: double-stranded DNA, one strand shown
Medium: in vitro
Concentration: not given
Setting: 8-mer, flanks averaged, mean of 2 arrays, mostly near background
Relative to: not given
Reading: higher = stronger binding
Construct (chain): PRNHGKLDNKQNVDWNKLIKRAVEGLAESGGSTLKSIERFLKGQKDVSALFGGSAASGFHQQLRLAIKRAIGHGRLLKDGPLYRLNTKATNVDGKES
Oligonucleotide	E-score
AACAGATT	-0.198
GCACAAGA	0.0722
CATGCTGC	0.0883
ATCATAAT	-0.00747
AGCCCCCG	-0.0241
ATTACGTG	-0.209

Study 3
Target: Sal-like protein 4, full length isoform B (SALL4, Homo sapiens, UniProt Q9UJQ4-2, residues 1-616)
Method: universal PBM
Form: double-stranded DNA, one strand shown
Medium: in vitro
Concentration: not given
Setting: 8-mer, flanks averaged, mean of replicates
Reading: higher = stronger binding
Construct (chain): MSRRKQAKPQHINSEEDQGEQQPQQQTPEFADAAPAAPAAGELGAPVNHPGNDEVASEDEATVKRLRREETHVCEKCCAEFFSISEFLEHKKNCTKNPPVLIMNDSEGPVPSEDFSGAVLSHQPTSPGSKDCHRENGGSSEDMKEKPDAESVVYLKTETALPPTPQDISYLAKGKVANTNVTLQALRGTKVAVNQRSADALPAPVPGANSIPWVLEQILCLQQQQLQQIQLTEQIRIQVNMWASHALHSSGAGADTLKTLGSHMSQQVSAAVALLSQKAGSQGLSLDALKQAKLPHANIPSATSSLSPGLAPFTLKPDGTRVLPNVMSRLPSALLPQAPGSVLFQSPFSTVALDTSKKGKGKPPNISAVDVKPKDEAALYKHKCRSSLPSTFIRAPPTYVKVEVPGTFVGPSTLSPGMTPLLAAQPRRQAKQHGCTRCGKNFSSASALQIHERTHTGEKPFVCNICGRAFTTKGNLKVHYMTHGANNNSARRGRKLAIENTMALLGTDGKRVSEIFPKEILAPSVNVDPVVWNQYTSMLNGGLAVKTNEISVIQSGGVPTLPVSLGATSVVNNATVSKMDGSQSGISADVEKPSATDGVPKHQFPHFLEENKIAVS
Oligonucleotide	E-score
GGAGAGAC	-0.0823
CATCTGAG	-0.0965
AGCTACCA	-0.0839
CCTCAGCG	-0.107
GGGGGGAC	-0.328
GCCTGCGC	-0.34
TGCCTACA	0.00704
GAACATGA	0.0795

Mixed results
Molecule	target	assay	test system	setting	scale	endpoint	result
PhoQ, residues 284 288 289 292 302 303 SNSSNI	PhoP, residues 12 14 15 18 19 LHHSG (Escherichia coli, UniProt P23836)	Sort-seq, measured: YFP reporter	E. coli	PhoQ-PhoP variant library, with: 10 µM Mg2+	relative to: high Mg2+ state, higher = stronger signaling	fold induction	10.8

Some of these lines once more (study 3):
Oligonucleotide	E-score
GAACATGA	0.0795
GCCTGCGC	-0.34
